Measurements gathered from unrelated publications.
MET M1250T: Hepatocyte growth factor receptor (MET, Homo sapiens, UniProt P08581, M1250T)
MET: Hepatocyte growth factor receptor (MET, Homo sapiens, UniProt P08581)
MET Y1235D: Hepatocyte growth factor receptor (MET, Homo sapiens, UniProt P08581, Y1235D)

SMILES	target	observed	technique	concentration	reference	remaining binding [%]
COc1cc(Nc2nccc(-c3cnn4nc(OC)ccc34)n2)cc(C(F)(F)F)c1	MET M1250T	binding	–	1 µM	–	100
Cc1cnc2nc1Nc1cccc(c1)COC/C=C/COCc1cc(ccc1OCCN1CCOCC1)N2	MET M1250T	binding	–	0.1 µM	–	95
CNC1C[S+]2CC[S+]3CC[S+](C1)[Ru-4]321([N]=C=S)[n]2c3ccc(OC)cc3c3c4c(c5cc(F)c[n+]1c5c32)C(=O)NC4=O (stereo not shown)	MET M1250T	–	KinomeScan	0.1 µM	untreated	82
Nc1ncc2c(n1)-c1c([nH]c3ccc(C4=CCOCC4)cc13)CCC2	MET	binding	competition with immobilised ligand	1 µM	–	97
C=CC(=O)N1CCc2ccc(-n3c(=O)ccc4cnc5ccc(-c6cnn(C)c6)cc5c43)cc21	MET Y1235D	–	KINOMEscan	1 µM	DMSO control	100
COc1c(Cl)cccc1Nc1c(-c2ccncc2C#C[C@@]2(C)CCCN2C(=O)/C=C/CN(C)C)[nH]c2c1C(=O)NCC2	MET	cell-free assay	competition with immobilised ligand	3 µM	–	92
C=CC(=O)N1CCCC(n2c(=O)c3ncccc3n(Cc3ccc(Oc4ccccc4)cc3)c2=O)C1 (stereo not shown)	MET	cell-free assay	competition with immobilised ligand	1 µM	–	90
CNC(=O)C1CCN(c2cc(C)c(F)cc2NC(=O)c2ccc(-c3cc(O)ccc3C)c(C)c2)CC1	MET Y1235D	binding	competition with immobilised ligand	1 µM	–	97
CCN1CCN(Cc2ccc(C(=O)Nc3ccc(C)c(NCc4cnc5[nH]ccc5c4OC)c3)cc2C(F)(F)F)CC1	MET M1250T	binding	competition with immobilised ligand	1 µM	–	98
CNS(=O)(=O)Nc1nccc(Cc2c(C)c3ccc(Oc4ncccc4F)cc3oc2=O)c1F	MET	cell-free assay	competition with immobilised ligand	10 µM	–	69
CN1CCN(Cc2ccc(NC(=O)c3cccc(C#Cc4cnc(N)c5ncccc45)c3)cc2C(F)(F)F)CC1	MET	cell-free assay	competition with immobilised ligand	50 nM	–	86
Cc1ccc(-c2c(/C=C(\C#N)C(=O)NC(C)C)n(CCCO)c3ncnc(N)c23)cc1	MET	cell-free assay	competition with immobilised ligand	1 µM	–	100
CC(C)=CC1OC(C)(C)C2C=C3C(=O)C(Cl)=CC(O)C3C3C(O)C4OC4C(=O)C132 (stereo not shown)	MET M1250T	cell-free assay	competition with immobilised ligand	10 µM	–	92

A few entries again:
SMILES	target	observed	technique	concentration	reference	remaining binding [%]
CNC1C[S+]2CC[S+]3CC[S+](C1)[Ru-4]321([N]=C=S)[n]2c3ccc(OC)cc3c3c4c(c5cc(F)c[n+]1c5c32)C(=O)NC4=O (stereo not shown)	MET M1250T	–	KinomeScan	0.1 µM	untreated	82
C=CC(=O)N1CCCC(n2c(=O)c3ncccc3n(Cc3ccc(Oc4ccccc4)cc3)c2=O)C1 (stereo not shown)	MET	cell-free assay	competition with immobilised ligand	1 µM	–	90
